{"data": "Published values collected from several papers", "note": "Every numbered part comes from another study and shows a few of its results, in no order. “And” joins repeats or separate records; there may be more than shown. Changes are numbered by the printed parent chain."}
{"data": "Block 1", "cell line": "mouse MPNST tumor cells", "technique": "high-content nuclear imaging", "measured": "cell number", "concentration": "10 µM", "time": "12 h", "notes": "mean of 2 replicates", "relative to": "plate mean", "reading": "higher = more cells"}
{"Structure (SMILES)": "O=[N+]([O-])c1cccc2c(Br)[nH]nc12", "nuclei count": "1.72 z-score"}
{"Structure (SMILES)": "C(=C\\c1ccccc1)/CN1CCN(C(c2ccccc2)c2ccccc2)CC1", "nuclei count": "3.24 z-score"}
{"Structure (SMILES)": "CCc1nc2c(c3cc(OC)c(OC)cc13)C(=O)NC2=O", "nuclei count": "1.14 z-score"}
{"Structure (SMILES)": "NC[C@H]1CC[C@H](C(=O)O)CC1", "nuclei count": "1.1 z-score and 1.48 z-score"}
{"Structure (SMILES)": "Nc1ncc(Cc2ccc(Br)cc2)s1", "nuclei count": "0.911 z-score"}
{"Structure (SMILES)": "O=c1[nH]c2cc(C(F)(F)F)c(N3CCOCC3)cc2n(CP(=O)(O)O)c1=O", "nuclei count": "1.13 z-score"}
{"Structure (SMILES)": "CCOc1ccccc1C(N)=O", "nuclei count": "-0.102 z-score"}
{"Structure (SMILES)": "C[C@]12CC[C@H]3C(=CCc4cc(O)ccc43)[C@@H]1CCC2=O", "nuclei count": "0.664 z-score"}
{"data": "Block 2", "SMILES": "CC(=O)N[C@@H](Cc1c[nH]c2ccccc12)C(=O)N[C@@H](CCC(=O)C=[N+]=[N-])C(=O)OC(C)C", "dose": "dose not given"}
{"assay": "measured: N-acetylglutamate", "test system": "mouse, EL4 tumour-bearing, EL4 tumour", "scale": "relative to: vehicle", "fold change": 2.36}
{"assay": "measured: fructose", "test system": "mouse, EL4 tumour-bearing, EL4 tumour", "scale": "relative to: vehicle", "fold change": 3.36}
{"assay": "measured: cysteine-glutathione disulfide", "test system": "Mus musculus, EL4 tumour", "scale": "relative to: over vehicle", "fold change": 4.17}
{"assay": "measured: 3'-CMP", "test system": "mouse, EL4 tumour-bearing, EL4 tumour", "scale": "relative to: vehicle", "fold change": 2.32}
{"assay": "measured: 2'-deoxyadenosine 3'-monophosphate", "test system": "mouse, EL4 tumour, tumour", "scale": "relative to: vehicle", "fold change": 2.21}
{"assay": "measured: homocysteine", "test system": "mouse, EL4 tumour-bearing, EL4 tumour", "scale": "relative to: vehicle", "fold change": 0.178}
{"assay": "measured: daidzein", "test system": "mouse, EL4 tumour-bearing, EL4 tumour", "scale": "relative to: vehicle", "fold change": 0.465}
{"assay": "measured: galactonate", "test system": "mouse, EL4 tumour-bearing, EL4 tumour", "scale": "relative to: vehicle", "fold change": 2.09}
{"data": "Further values, each from its own experiment", "P1": "viral docking peptide; KKAKRRLFTISDS; partner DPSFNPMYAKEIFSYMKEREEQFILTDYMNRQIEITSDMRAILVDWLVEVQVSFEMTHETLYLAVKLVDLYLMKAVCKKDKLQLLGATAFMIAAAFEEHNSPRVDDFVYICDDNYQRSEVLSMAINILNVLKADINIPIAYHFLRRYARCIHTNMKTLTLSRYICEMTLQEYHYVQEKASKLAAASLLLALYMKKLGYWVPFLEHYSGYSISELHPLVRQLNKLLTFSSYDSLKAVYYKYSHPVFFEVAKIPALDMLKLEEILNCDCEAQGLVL"}
{"Substance": "CC(C)(C)c1nc(-c2cccc(NS(=O)(=O)c3c(F)cccc3F)c2F)c(-c2ccnc(N)n2)s1", "target or system": "L929", "assay": "CCK-8", "conditions": "25 µM, added: zVAD", "quantity": "viability", "result": "69.6% and 68.8% and 67.4% and 67.3%"}
{"Substance": "P1 R5K", "target or system": "CCNB3, cyclin fold, Cln2 fusion (human)", "assay": "yeast growth competition, sequencing", "test system": "yeast", "conditions": "strong parent motif", "scale": "relative to: not given, higher = stronger binding", "quantity": "normalised enrichment score", "result": 0.217}
{"note": "Repeated from above (block 1):"}
{"Structure (SMILES)": "Nc1ncc(Cc2ccc(Br)cc2)s1", "nuclei count": "0.911 z-score"}
{"Structure (SMILES)": "O=c1[nH]c2cc(C(F)(F)F)c(N3CCOCC3)cc2n(CP(=O)(O)O)c1=O", "nuclei count": "1.13 z-score"}
{"Structure (SMILES)": "CCOc1ccccc1C(N)=O", "nuclei count": "-0.102 z-score"}
